Experimental data pooled from the literature.
± gives the spread as reported.
TMPRSS2: Transmembrane protease serine 2 (TMPRSS2, Homo sapiens, UniProt O15393)
AGTR1: Type-1 angiotensin II receptor (AGTR1, Homo sapiens, UniProt P30556)
FGFR1: Fibroblast growth factor receptor 1 (FGFR1, Homo sapiens, UniProt P11362)
TMPRSS11D: Transmembrane protease serine 11D (TMPRSS11D, Homo sapiens, UniProt O60235)
PTGS2: Prostaglandin G/H synthase 2 (PTGS2, Homo sapiens, UniProt P35354)
DRD2: D(2) dopamine receptor (DRD2, Homo sapiens, UniProt P14416)
SLC12A2: Solute carrier family 12 member 2 (SLC12A2, Homo sapiens, UniProt P55011)

SMILES = Cc1cccc(C(=O)Nc2ccc(CN)cc2)c1O; target = TMPRSS2; test = enzyme activity, inhibitor; conditions = 10 µM, added: Boc-QAR-AMC; inhibition = < 20%
SMILES = Oc1c(C(Nc2nc3ccccc3s2)c2ccccc2OCc2ccccc2)ccc2cccnc12 (stereo not shown); target = Genome polyprotein, NS2B-NS3 protease (GP1, West Nile virus, UniProt Q9Q6P4); test = enzyme activity, inhibitor; conditions = 10 µM, 0.1% CHAPS, added: tetrapeptide substrate; inhibition = 70.2 ± 1.06%
SMILES = CCOC(=O)NS(=O)(=O)c1sc(CC(C)C)cc1-c1ccc2c(c1)CN(CC)C(=O)C2; target = AGTR1; test = ligand displacement, radioligand; conditions = 10 µM, cell membranes; inhibition = 11%
SMILES = Cc1cc2c(NC(=O)N[C@@H]3CC(C)(C)Oc4c(OC(F)(F)F)cccc43)cccc2cn1; target = Transient receptor potential cation channel subfamily V member 1 (Trpv1, Rattus norvegicus, UniProt O35433); test = acid-evoked calcium influx, antagonist; system = HEK293, rat; conditions = 11.25 µM, pH 5; inhibition = -5.1 ± 9.2%
SMILES = NCc1ccc(NC(=O)c2ccc3ccc(Cl)cc3c2O)cc1; target = TMPRSS2; test = enzyme activity, inhibitor; conditions = 10 µM, added: Boc-QAR-AMC; inhibition = < 20%
SMILES = Cc1c(-c2c3c(N)n[nH]c(=O)c3nn2-c2ccccc2)oc2c(F)cccc12; target = FGFR1; test = enzyme activity, inhibitor, ELISA; conditions = 0.1 µM; inhibition = 78.6%
SMILES = OC(c1cccc(C(F)(F)F)c1)c1c[nH]c2ncc(C(F)(F)F)cc12 (stereo not shown); target = FGFR1; test = enzyme activity, inhibitor; conditions = 1 µM; inhibition = 22%
SMILES = Oc1ccc(-c2csc(Cc3ccccc3)n2)c(O)c1; target = Semaphorin-3C, with neuropilin-1 (SEMA3C, Homo sapiens, UniProt Q99985); test = SEMA3C binding to NRP1; conditions = 25 µM; how to read = relative to: DMSO; inhibition = inactive
SMILES = NCCO[C@H]1[C@H](O)[C@@H](O)[C@@H]2O[C@@H]2[C@@H]1C(=O)O; target = Heparanase (HPSE, Homo sapiens, UniProt Q9Y251); test = inhibitor, competitive ABPP; system = human platelet lysate; conditions = up to 100 µM, 60 min, pH 5.0; inhibition = inactive
SMILES = CC(=O)N[C@@H]1[C@@H](O)[C@H](O)[C@@H](CO)N[C@@H]1CP(=O)(O)OP(=O)(O)OC/C=C(/C)CC/C=C(\C)CCC=C(C)C; target = Peptidoglycan glycosyltransferase (Clostridioides difficile, UniProt Q189X7); test = transglycosylase activity, HPLC; conditions = 100 µM, added: NBD-lipid II; inhibition = 30%
SMILES = Cc1ccc(O)c(C(=O)Nc2ccc(CN)cc2)c1; target = Plasminogen (PLG, Homo sapiens, UniProt P00747); test = enzyme activity, inhibitor; conditions = 10 µM; inhibition = < 20%
SMILES = CCCCOC(=O)NS(=O)(=O)c1sc(CC(C)C)cc1-c1cccc(CN(Cc2cccs2)C(C)=O)c1; target = AGTR1; test = ligand displacement, radioligand; conditions = 10 µM, cell membranes; inhibition = 30%
SMILES = NCc1ccc(NC(=O)c2cc(Br)ccc2O)cc1; target = TMPRSS11D; test = enzyme activity, fluorogenic substrate; conditions = 10 µM, added: Boc-VPR-AMC; inhibition = < 20%
SMILES = N[C@@H]1CCCc2c1[nH]c1ccc(Cl)cc21; target = Sodium-dependent serotonin transporter (SLC6A4, Homo sapiens, UniProt P31645); test = ligand displacement, radioligand; conditions = 10 µM; inhibition = 98.4%
SMILES = Cc1ccc([N+](=O)[O-])cc1S(=O)(=O)N(C)/N=C/c1cnc2ccc(Br)cn12; target = Mitogen-activated protein kinase 12 (MAPK12, Homo sapiens, UniProt P53778); test = enzyme activity, inhibitor, radiometric; conditions = 0.2 µM; inhibition = 59%
SMILES = CCCCOC(=O)NS(=O)(=O)c1sc(CC(C)C)cc1-c1cccc2c1CCN(C(C)=O)C2; target = AGTR1; test = ligand displacement, radioligand; conditions = 10 µM, cell membranes; inhibition = 22%
SMILES = CN(C1COC1)C(C)(C)/C=C(\C#N)C(=O)N1CCC[C@H]1Cn1nc(-c2ccc(Oc3ccccc3)cc2F)c2c(N)ncnc21; target = Receptor tyrosine-protein kinase erbB-4 (ERBB4, Homo sapiens, UniProt Q15303); conditions = 1 µM, mean; inhibition = > 90%
SMILES = O=C(O)c1ccc(CS(=O)(=O)CC(=O)C23CC4CC(CC(C4)C2)C3)o1; target = 11-beta-hydroxysteroid dehydrogenase 1 (HSD11B1, Homo sapiens, UniProt P28845); test = enzyme activity in cells, inhibitor; system = HEK293; conditions = 1 µM; inhibition = 4%
SMILES = FC(F)(F)c1cnc2[nH]cc(Cc3ccc(Cl)c(C(F)(F)F)c3)c2c1; target = FGFR1; test = enzyme activity, inhibitor; conditions = 0.1 µM; inhibition = 7%
SMILES = CC(C)(O)Cn1nc(-c2ccccc2)c2c(Cl)c(-c3ccccc3)nnc21; target = Heat shock protein HSP 90-beta (HSP90AB1, Homo sapiens, UniProt P08238); test = chaperone activity; conditions = 8.46 µM, added: citrate synthase aggregation; inhibition = 40.1 ± 19.1%
SMILES = N#Cc1c(NC(=O)c2ccc(Cl)cc2)sc2c1CCC(c1ccccc1)C2 (stereo not shown); target = L-lactate dehydrogenase A chain (LDHA, Homo sapiens, UniProt P00338); test = enzyme activity, inhibitor, fluorescence; conditions = 100 µg/mL; inhibition = 27.5%
SMILES = Cc1ccc(CC(=O)N/N=C/c2cc(Br)c(O)c(Br)c2O)cc1; target = Cystic fibrosis transmembrane conductance regulator (CFTR, Homo sapiens, UniProt P13569); test = apical Cl- current; system = FRT; conditions = 50 µM; inhibition = 54%
SMILES = Cc1ccc(/C=C2\CCCC3C2=NN(C(=O)c2ccncc2)C3c2ccc(C)cc2)cc1 (stereo not shown); target = PTGS2; test = enzyme activity; conditions = concentration not given; inhibition = 78.9%
SMILES = COc1ccc2ccc(C(=O)Nc3ccc(CN)cc3)c(O)c2c1; target = TMPRSS11D; test = enzyme activity, fluorogenic substrate; conditions = 10 µM, added: Boc-VPR-AMC; inhibition = < 20%
SMILES = CCn1c2ccccc2c2cc(CNCCCn3cnnc3)ccc21; target = DRD2; test = cell-free assay, inhibitor; conditions = 10 µM; inhibition = 30.5%
SMILES = COc1cc(C(=O)NC2CCC(N3CCN(CC4CCC5(CCCC5)C4)CC3)CC2)c(F)cc1Nc1ncc2c(n1)N(C1CCCC1(F)F)CC(F)(F)C(=O)N2C (stereo not shown); target = Ephrin type-A receptor 8 (EPHA8, Homo sapiens, UniProt P29322); test = cell-free assay, TR-FRET; conditions = 10 µM; inhibition = 0.73%
SMILES = CC(C)c1ccc(C(=O)Nc2ccc(CN)cc2)c(O)c1; target = Kallikrein-6 (Homo sapiens, UniProt Q92876); test = enzyme activity, inhibitor; conditions = 10 µM; inhibition = 80%
SMILES = O=C(Cc1ccc(Cl)cc1)Nc1ccc(S(=O)(=O)Nc2cnc3ccccc3n2)cc1; target = Peptidyl-prolyl cis-trans isomerase A (PPIA, Homo sapiens, UniProt P62937); test = enzyme activity, inhibitor; conditions = 10 µM; inhibition = 3.2%
SMILES = FC1(F)Oc2ccc(Cc3c[nH]c4ncc(C(F)(F)F)cc34)cc2O1; target = FGFR1; test = enzyme activity, inhibitor; conditions = 0.1 µM; inhibition = 19%
SMILES = CN(C)C(=O)c1cncc(N2Cc3cn(Cc4ccc(F)cc4)nc3C2)n1; target = DRD2; test = ligand displacement; conditions = 10 µM; inhibition = 54%
SMILES = Cc1nc(CN(C)c2ncnc3c2cnn3CCO)cs1; target = Heat shock protein HSP 90-beta, N-terminal domain (HSP90AB1, Homo sapiens, UniProt P08238); test = binding, fluorescence polarization; conditions = 10 µM, added: FITC-geldanamycin; inhibition = 44 ± 10.3%
SMILES = CN(C)S(=O)(=O)c1cc(C(=O)O)ccc1NCCCCCCCC(F)(F)F; target = SLC12A2; test = chloride influx; system = HEK293 transfected with SLC12A2; conditions = 10 µM; how to read = relative to: DMSO; inhibition = 31.8 ± 5.4%
SMILES = N=C(N)c1ccc(/N=N/c2cc(/C=C/c3ccccc3)ccc2O)cc1; target = Mycosin-1 (Mycolicibacterium thermoresistibile, UniProt G7CDQ2); test = protease activity, inhibitor, quenched fluorescent peptide; conditions = 150 µM, added: 20 µM fluorogenic peptide substrate; how to read = relative to: DMSO control; inhibition = 68.5%
SMILES = COc1cc(OC)cc(C(O)c2c[nH]c3ncc(C(F)(F)F)cc23)c1 (stereo not shown); target = FGFR1; test = enzyme activity, inhibitor; conditions = 0.1 µM; inhibition = 61%
SMILES = COc1cc2ccc(C(=O)Nc3ccc(CN)cc3)c(O)c2cc1OC; target = TMPRSS2; test = enzyme activity, inhibitor; conditions = 10 µM, added: Boc-QAR-AMC; inhibition = < 20%
SMILES = Cc1cc(O)c(C=O)c2c1C(=O)Oc1c(CO)c(O)c3c(c1O2)C(O)OC3=O (stereo not shown); target = cGMP-specific 3',5'-cyclic phosphodiesterase (PDE5A, Homo sapiens, UniProt O76074); test = enzyme activity, inhibitor; conditions = 2.5 µg/mL; inhibition = 45.8%
SMILES = Oc1c(C(Nc2nc3ccccc3s2)c2cccc(OCc3ccccc3)c2)ccc2cccnc12 (stereo not shown); target = Genome polyprotein, protease (Dengue virus type 2, UniProt P14340); test = enzyme activity, inhibitor, fluorescence; conditions = 25 µM; inhibition = 90.6%
SMILES = OC(c1cc(F)ccc1F)c1c[nH]c2ncc(C(F)(F)F)cc12 (stereo not shown); target = FGFR1; test = enzyme activity, inhibitor; conditions = 1 µM; inhibition = 61%
SMILES = N=C(N)SCc1ccc(CSC(=N)N)cc1; target = Tryptophan 2,3-dioxygenase (TDO2, Homo sapiens, UniProt P48775); test = enzyme activity, inhibitor, biochemical; conditions = concentration not given; inhibition = inactive
SMILES = CC(C)=C1C=C2CCC3C(C)(C(=O)O)CCCC3(C)C2CC1 (stereo not shown); target = Replication protein A 70 kDa DNA-binding subunit (RPA1, Homo sapiens, UniProt P27694); test = ssDNA binding, EMSA; conditions = 200 µM; inhibition = no effect
SMILES = FC(F)(F)c1cnc2[nH]cc(Cc3cccc(Oc4ccccc4)c3)c2c1; target = FGFR1; test = enzyme activity, inhibitor; conditions = 1 µM; inhibition = 64%
SMILES = COC(=O)c1cccc(-c2cc(C)c3ncc(C(N)=O)c(Nc4cccc(OC)c4)c3c2)c1; target = Class 1 phosphodiesterase PDEB1 (PDEB1, Trypanosoma brucei, UniProt Q8WQX9); test = enzyme activity, inhibitor; conditions = 10 µM; inhibition = 94%
SMILES = CC(N)c1ccccc1 (stereo not shown); target = Krev interaction trapped protein 1, FERM domain (KRIT1, Homo sapiens, UniProt O00522); test = HEG1-KRIT1 FERM interaction, flow cytometry bead; conditions = concentration not given; inhibition = no inhibition
SMILES = NCc1ccc(NC(=O)c2ncccc2O)cc1; target = TMPRSS11D; test = enzyme activity, fluorogenic substrate; conditions = 10 µM, added: Boc-VPR-AMC; inhibition = < 20%
SMILES = CCCCCCCCc1ccc(CC[C@@](N)(/C=C/P(=O)(O)O)CO)cc1; target = Sphingosine kinase 1 (SPHK1, Homo sapiens, UniProt Q9NYA1); test = enzyme activity, inhibitor; conditions = 50 µM; inhibition = 40%
SMILES = OC(c1cccc(OC(F)(F)F)c1)c1c[nH]c2ncc(C(F)(F)F)cc12 (stereo not shown); target = FGFR1; test = enzyme activity, inhibitor; conditions = 1 µM; inhibition = 22%
SMILES = CC(=O)Oc1ccccc1C(=O)[O][Pt]([NH2])([NH2])([Cl])([Cl])[O]C(=O)C(Cl)Cl; target = PTGS2; test = enzyme activity, COX activity kit; system = PSN1; conditions = 1 µM, 24 h; inhibition = ~9%
SMILES = Fc1ccc(F)c(Cc2c[nH]c3ncc(C(F)(F)F)cc23)c1; target = FGFR1; test = enzyme activity, inhibitor; conditions = 1 µM; inhibition = 78%
SMILES = CNS(=O)(=O)c1cc([N+](=O)[O-])ccc1NCCC(C)(C)C; target = SLC12A2; test = chloride influx; system = HEK293 transfected with SLC12A2; conditions = 100 µM; how to read = relative to: DMSO; inhibition = 28.6 ± 4.3%

Some of these lines once more:
SMILES = O=C(O)c1ccc(CS(=O)(=O)CC(=O)C23CC4CC(CC(C4)C2)C3)o1; target = 11-beta-hydroxysteroid dehydrogenase 1 (HSD11B1, Homo sapiens, UniProt P28845); test = enzyme activity in cells, inhibitor; system = HEK293; conditions = 1 µM; inhibition = 4%
SMILES = FC(F)(F)c1cnc2[nH]cc(Cc3ccc(Cl)c(C(F)(F)F)c3)c2c1; target = FGFR1; test = enzyme activity, inhibitor; conditions = 0.1 µM; inhibition = 7%
SMILES = CC(C)(O)Cn1nc(-c2ccccc2)c2c(Cl)c(-c3ccccc3)nnc21; target = Heat shock protein HSP 90-beta (HSP90AB1, Homo sapiens, UniProt P08238); test = chaperone activity; conditions = 8.46 µM, added: citrate synthase aggregation; inhibition = 40.1 ± 19.1%
SMILES = N#Cc1c(NC(=O)c2ccc(Cl)cc2)sc2c1CCC(c1ccccc1)C2 (stereo not shown); target = L-lactate dehydrogenase A chain (LDHA, Homo sapiens, UniProt P00338); test = enzyme activity, inhibitor, fluorescence; conditions = 100 µg/mL; inhibition = 27.5%
SMILES = Cc1ccc(CC(=O)N/N=C/c2cc(Br)c(O)c(Br)c2O)cc1; target = Cystic fibrosis transmembrane conductance regulator (CFTR, Homo sapiens, UniProt P13569); test = apical Cl- current; system = FRT; conditions = 50 µM; inhibition = 54%
SMILES = Cc1ccc(/C=C2\CCCC3C2=NN(C(=O)c2ccncc2)C3c2ccc(C)cc2)cc1 (stereo not shown); target = PTGS2; test = enzyme activity; conditions = concentration not given; inhibition = 78.9%
SMILES = COc1ccc2ccc(C(=O)Nc3ccc(CN)cc3)c(O)c2c1; target = TMPRSS11D; test = enzyme activity, fluorogenic substrate; conditions = 10 µM, added: Boc-VPR-AMC; inhibition = < 20%
